Measurements of several laboratories.
Numbers after ± are the reported error.

COC(=O)c1ccccc1-c1c2ccc(=N)cc-2oc2cc(N)ccc12 — IC50 (HeLa 14 expressing mutant P-gp; 48 h): 2.87 ± 0.3 µM
Cc1ncsc1-c1ccc(CNC(=O)[C@@H]2C[C@@H](O)CN2C(=O)[C@@H](NC(=O)C2(F)CC2)C(C)(C)C)c(OCCOc2ccc(CN3CCN(c4cc(-c5ccccc5O)nnc4N)CC3)cc2)c1 — IC50 (SMARCA4 wild-type lung cancer cells; clonogenic growth; 10 days, median over cell lines): 0.018 µM
CC[C@@H](C)[C@H]1NC(=O)[C@H](Cc2ccc(-c3ccccc3)cc2)NC(=O)[C@H](CC(C)C)NC(=O)[C@@H]2[C@@H](c3ccccc3)CCN2C(=O)[C@H](NC(=O)[C@@H](CCCNC(=N)N)NC(=O)[C@@H](CCCNC(=N)N)NC(C)=O)CSCSC[C@@H](C(=O)N[C@H](CCCNC(=N)N)C(=O)N[C@H](CCCNC(=N)N)C(N)=O)NC(=O)[C@H](C(C)C)NC(=O)[C@@H]2CCCN2C(=O)[C@H](CC(=O)O)NC(=O)[C@H](Cc2ccc(O)cc2)NC(=O)[C@@](C)(CO)NC1=O — IC50 (AsPC-1; LDH release; 18 h): > 50 µM
O=C1[O][Pt]2([NH][C@@H]3CCCC[C@H]3[NH]2)[O]C1=O — IC50 (LoVo resistant to compound; cell viability, MTT; 72 h): 21.9 ± 1.86 µM
c1ccc(CNCc2cc3c(-c4ccccc4)n[nH]c3c(Nc3ccccc3)n2)cc1 — IC50 (SKOV3; cell viability, MTS; 48 h): 4.3 ± 0.2 µM
N.N.[Cl][Pt][Cl] — IC50 (HL-7702 normal hepatocytes; cell viability, MTT; 48 h): 17.1 ± 1.04 µM
C=CCO[C@H]1CCN2C(=O)[C@H](NC(=O)[C@H](CCCNC(=N)N)NC(=O)[C@H](CCCNC(=N)N)NC(C)=O)CSCSC[C@@H](C(=O)N[C@@H](CCCNC(=N)N)C(=O)N[C@@H](CCCNC(=N)N)C(N)=O)NC(=O)[C@H](C(C)C)NC(=O)[C@@H]3CCCN3C(=O)[C@H](CC(=O)O)NC(=O)[C@H](Cc3ccc(O)cc3)NC(=O)[C@H](CO)NC(=O)[C@H]([C@@H](C)CC)NC(=O)[C@H](Cc3ccc(-c4ccccc4)cc3)NC(=O)[C@H](CC(C)C)NC(=O)[C@H]12 — IC50 (AsPC-1; LDH release; 18 h): > 50 µM
CC(=N)S — IC50 (THLE-2, 3D culture; MTT; 96 h): 181.8 ± 0.654 µM
CCC(C)C(C(CC(=O)N1CCCC1C(OC)C(C)C(=O)NC(Cc1ccccc1)C(=O)O)OC)N(C)C(=O)C(NC(=O)C(C(C)C)N(C)C(=O)CCSSc1ccccn1)C(C)C (stereo not drawn) — IC50 (HeLa; cell growth, MTT; 2 h treatment, read at 72 h): ~5 µM
Nc1nc(N)c2nc(-c3ccccc3)c(N)nc2n1 — IC50 (Plasmodium falciparum; W2): 12.6 µM
COc1cc(Nc2nc(CN)cc3c(-c4ccccc4)n[nH]c23)cc(OC)c1OC — IC50 (SKOV3; cell viability, MTS; 48 h): 3.9 ± 0.4 µM
N.N.[Cl][Pt][Cl] — IC50 (THLE-2; cytotoxicity, MTT; 3D culture): 4.9 ± 0.121 µM
COC1=C2C[C@@H](C)C[C@H](OC)[C@H](O)[C@@H](C)/C=C(\C)[C@H](OC(N)=O)[C@@H](OC)/C=C\C=C(/C)C(=O)NC(=C(C)C1=O)C2=O — IC50 (HUVEC; cytotoxicity, MTT): 16.9 ± 3.3 µM
COc1c(C)c2c(c(O)c1C/C=C(\C)CCC(=O)O)C(=O)OC2 — IC50 (786-O; cell proliferation): 0.646 µM
C=CCO[C@H]1CCN2C(=O)[C@H](NC(=O)[C@H](CCCNC(=N)N)NC(=O)[C@H](CCCNC(=N)N)NC(C)=O)CSCSC[C@@H](C(=O)N[C@@H](CCCNC(=N)N)C(=O)N[C@@H](CCCNC(=N)N)C(N)=O)NC(=O)[C@H](CCCCC)NC(=O)[C@@H]3CCCN3C(=O)[C@H](CC(=O)O)NC(=O)[C@H](Cc3ccc(O)cc3)NC(=O)[C@H](CO)NC(=O)[C@H]([C@@H](C)CC)NC(=O)[C@H](Cc3ccc(-c4ccccc4)cc3)NC(=O)[C@H](CC(C)C)NC(=O)[C@H]12 — IC50 (AsPC-1; LDH release; 18 h): > 50 µM
N.N.[Cl][Pt][Cl] — IC50 (Jurkat E6-1; cell proliferation, CellTiter-Glo; 72 h): 1.21 µM
Cc1cc(N(CCOS(C)(=O)=O)CCOS(C)(=O)=O)ccc1C(=O)O — IC50 (A498; cell growth): 23.5 µg/mL
Cc1ncsc1-c1ccc([C@H](C)NC(=O)[C@@H]2C[C@@H](O)CN2C(=O)[C@@H](c2cc(N3CCC(CN4CCC(OC5CC(Oc6cc(N7C8CCC7CN(c7cc(-c9ccccc9O)nnc7N)C8)ccn6)C5)CC4)CC3)no2)C(C)C)cc1 (stereo partly drawn) — IC50 (NCI-H522 SMARCA4/SMARCA2-deficient; cell viability, CellTiter-Glo; 7 days): > 1 µM
CC(C)c1n[nH]c2c(Nc3ccccc3)nc(CNCc3ccccc3)cc12 — IC50 (SKOV3; cell viability, MTS; 48 h): 2.8 ± 0.4 µM
CC[C@H](C)[C@@H]1NC(=O)[C@H](Cc2ccc(-c3ccccc3)cc2)NC(=O)[C@H](CC(C)C)NC(=O)[C@@H]2[C@@H](c3ccccc3)CCN2C(=O)[C@H](NC(=O)[C@H](CCCNC(=N)N)NC(=O)[C@H](CCCNC(=N)N)NC(C)=O)CSCSC[C@@H](C(=O)N[C@@H](CCCNC(=N)N)C(=O)N[C@@H](CCCNC(=N)N)C(N)=O)NC(=O)[C@H](C(C)C)NC(=O)[C@@H]2CCCN2C(=O)[C@H](CC(=O)O)NC(=O)[C@H](Cc2ccc(O)cc2)NC(=O)[C@H](CO)NC1=O — IC50 (AsPC-1; LDH release; 18 h): > 50 µM
CC1=C(C)C(=O)C(CCCCC#CCCCC#CCO)=C(C)C1=O — IC50 (Plasmodium falciparum; HB3): 10 µM
COC1=C2C[C@@H](C)C[C@H](OC)[C@H](O)[C@@H](C)/C=C(\C)[C@H](OC(N)=O)[C@@H](OC)/C=C\C=C(/C)C(=O)NC(=C(c3ccccc3)C1=O)C2=O — IC50 (HUVEC; cytotoxicity, MTT): 2.1 ± 0.4 µM
CC(C)=C[C@H]1C[C@H](C)[C@]2(CC[C@]3(C)C[C@H]4[C@H]5/C(=C\C[C@H]32)CO[C@@]5(O)C[C@@]4(C)O)O1 — IC50 (HMLE-TWIST mammary epithelial, EMT+; cell viability): ~8 µM
COc1cc2c(c(OC)c1OC)-c1ccc(OC)c(=O)cc1[C@@H](NC(C)=O)CC2 — IC50 (HeLa 14 expressing mutant P-gp; 48 h): 0.034 ± 0.0017 µM

A few entries again:
CCC(C)C(C(CC(=O)N1CCCC1C(OC)C(C)C(=O)NC(Cc1ccccc1)C(=O)O)OC)N(C)C(=O)C(NC(=O)C(C(C)C)N(C)C(=O)CCSSc1ccccn1)C(C)C (stereo not drawn) — IC50 (HeLa; cell growth, MTT; 2 h treatment, read at 72 h): ~5 µM
